{"data": "Measured values collected from several papers", "target": "Bifunctional epoxide hydrolase 2 (EPHX2, Homo sapiens, UniProt P34913)", "observed": "enzyme activity", "action": "inhibitor", "note": "Lines come from different studies, so protocols differ.", "sequence of UniProt P34913 (whole entry, looked up)": "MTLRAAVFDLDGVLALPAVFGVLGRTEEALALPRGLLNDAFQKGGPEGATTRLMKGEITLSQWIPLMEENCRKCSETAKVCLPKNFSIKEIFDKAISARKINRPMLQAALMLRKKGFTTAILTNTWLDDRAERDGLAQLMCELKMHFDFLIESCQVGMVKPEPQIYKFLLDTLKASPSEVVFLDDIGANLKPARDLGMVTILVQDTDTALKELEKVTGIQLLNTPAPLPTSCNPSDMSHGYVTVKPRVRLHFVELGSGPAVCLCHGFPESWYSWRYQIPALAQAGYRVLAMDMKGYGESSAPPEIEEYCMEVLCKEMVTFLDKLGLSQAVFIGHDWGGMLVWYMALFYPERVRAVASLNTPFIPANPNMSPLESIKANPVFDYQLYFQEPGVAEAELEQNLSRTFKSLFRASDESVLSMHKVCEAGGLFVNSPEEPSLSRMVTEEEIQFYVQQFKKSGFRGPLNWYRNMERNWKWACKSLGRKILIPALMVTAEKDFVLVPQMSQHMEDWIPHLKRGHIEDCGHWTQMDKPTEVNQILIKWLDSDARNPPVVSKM"}
{"Compound": "CC(C)(O)C1=CC2Oc3c(ccc(O)c3C(=O)CCCCCCCCc3ccc(O)c(O)c3)C2(C)CC1 (centres unmarked)", "quantity": "Ki", "value": "23100 nM"}
{"Compound": "O=C(Nc1ccc(-c2nc(-c3ccccc3)cs2)cc1)C1CCN(Cc2ccccc2Cl)CC1", "assay": "fluorescence", "setting": "pH 7.4, with preincubation", "quantity": "IC50", "value": "2040 nM"}
{"Compound": "O=C(/C=C/c1ccc(O)c(O)c1)NCCc1ccc(O)cc1", "quantity": "Ki", "value": "1800 nM"}
{"Compound": "O=C(Nc1ccc(-c2nc(-c3ccccc3)cs2)cc1)C1CCN(Cc2ccc(F)cc2)CC1", "assay": "fluorescence", "setting": "pH 7.4, with preincubation", "quantity": "IC50", "value": "10.7 nM"}
{"Compound": "CC(C)=CC(=O)O[C@H]1c2c(ccc3ccc(=O)oc23)OC(C)(C)[C@H]1OC(=O)C=C(C)C", "assay": "fluorescence", "quantity": "Ki", "value": "1100 nM"}
{"Compound": "CC12CC3CC(C)(C1)CC(NC(=O)Nc1ccc(C(=O)N4CCC[C@@H](C(N)=O)C4)cc1)(C3)C2", "quantity": "IC50", "value": "0.31 nM"}
{"Compound": "Cc1ccccc1CN1CCC(C(=O)Nc2ccc(-c3nc(-c4ccccc4)cs3)cc2)CC1", "assay": "fluorescence", "setting": "pH 7.4, with preincubation", "quantity": "IC50", "value": "163 nM"}
{"Compound": "CC12CC3CC(C)(C1)CC(NC(=O)Nc1ccc(C(=O)N4CCC[C@@H](C(N)=O)C4)cc1F)(C3)C2", "quantity": "IC50", "value": "0.08 nM"}
{"Compound": "CC=Cc1ccc(OC(C)C(c2ccc(O)c(OC)c2)c2ccc(O)c(C(=O)CCCCCCCCc3ccc(O)c(O)c3)c2O)c(OC)c1 (centres unmarked)", "quantity": "Ki", "value": "23300 nM"}
{"Compound": "O=C(NCCc1ccc(O)cc1)c1cc2cc(O)c(O)cc2c(-c2ccc(O)c(O)c2)c1C(=O)NCCc1ccc(O)cc1", "quantity": "Ki", "value": "6900 nM"}
{"Compound": "CC12CC3CC(C)(C1)CC(NC(=O)Nc1ccc(C(=O)N4CCC(C(=O)NC5CC5)CC4)cc1)(C3)C2", "quantity": "IC50", "value": "1.14 nM"}
{"note": "Some of these lines once more:"}
{"Compound": "O=C(Nc1ccc(-c2nc(-c3ccccc3)cs2)cc1)C1CCN(Cc2ccc(F)cc2)CC1", "assay": "fluorescence", "setting": "pH 7.4, with preincubation", "quantity": "IC50", "value": "10.7 nM"}
{"Compound": "CC12CC3CC(C)(C1)CC(NC(=O)Nc1ccc(C(=O)N4CCC[C@@H](C(N)=O)C4)cc1)(C3)C2", "quantity": "IC50", "value": "0.31 nM"}
